Published values collected from several papers.
Lines come from different studies, so protocols differ. ± gives the spread as reported.

O=C(NCc1c(F)cccc1F)c1cn(Cc2ccc(F)cc2)cc(O)c1=O
CC50 (HFF; cell growth or viability, MTS; 7 days): 7.5 µM

CCN(CC)CC12C3CCC4C3C3C(CCC31)C42
CC50 (dog cells; cytotoxicity; 3 (unit not given)): 47 µM

CC(C)C[C@H](NC(=O)CN)C(=O)N[C@@H](CC(C)C)C(=O)N[C@@H](CCCCN)C(=O)N[C@@H](CC(C)C)C(=O)N[C@@H](CC(C)C)C(=O)N[C@@H](CCCCN)C(=O)N[C@@H](CCCCN)C(=O)N[C@@H](CC(C)C)C(=O)N[C@@H](CC(C)C)C(=O)N[C@@H](CCCCN)C(=O)N[C@@H](CC(C)C)C(=O)N[C@@H](CC(C)C)C(=O)N[C@@H](CCCCN)C(N)=O
CC50 (HDMEC; cytotoxicity): 102 µM

Cc1ccc(CNC(=O)c2cn(Cc3ccc(F)cc3)cc(O)c2=O)c(F)c1
CC50 (HFF; cell growth or viability, MTS; 7 days): > 50 µM

CN=c1nc(-c2ccccc2)n(-c2ccccc2)s1
CC50 (Huh-7, mock-infected; MTS; 4 (unit not given)): 14 ± 1.3 µM

CC(C)C[C@@H]1NC(=O)[C@H](CCCCN)NC(=O)[C@H](CC(C)C)NC(=O)[C@@](C)(NC(=O)[C@H](Cc2ccccc2)NC(=O)[C@H](Cc2ccc(O)cc2)NC(=O)[C@H](C)NC(=O)[C@@H](N)[C@@H](C)O)CCCC=CCCC[C@@](C)(C(=O)NCC(=O)N[C@@H](CCCNC(=N)N)C(=O)N[C@@H](Cc2c[nH]c3ccccc23)C(N)=O)NC1=O
CC50 (MT-4): 50 µM

COc1ccccc1/C=C/[N+](=O)[O-]
CC50 (H9c2; cell growth or viability; 72 h): 16.9 µM

c1csc(CNC23C4CCC5C4C4C(CCC42)C53)c1
CC50 (dog cells; cytotoxicity; 3 (unit not given)): ≥ 20 µM

COc1ccc(C(=O)OC2C(OC3C(O)COC(OC4CC5C6CC=C7CC(O)CCC7(C)C6CCC5(C)C4(O)C(C)C(=O)CCC(C)C)C3OC(C)=O)OCC(O)C2O)cc1 (stereo not shown)
CC50 (MRC5; cell growth or viability, MTT; 24 h): > 0.1 µM

C=CC1=C(C)c2cc3nc(cc4[nH]c(cc5[nH]c(cc1n2)c(C)c5C=C)c(C)c4CCC(=O)OCCCCCCCCCCCCCC)C(CCC(=O)O)=C3C
CC50 (dog cells): 128.3 ± 0.54 µM

NCC12C3CCC4C3C3C(CCC31)C42
CC50 (dog cells; cytotoxicity; 3 (unit not given)): 78 µM

COc1cc(/C=C/c2ccc3c(c2)[C@@H](c2cc(OC)cc(OC)c2)[C@H](c2ccc(O)cc2)O3)cc(OC)c1
CC50 (dog cells; 24 (unit not given)): 305 µM

CCN(CC)C12C3CCC4C3C3C(CCC31)C42
CC50 (dog cells; cytotoxicity; 3 (unit not given)): > 100 µM

C1=[N+]2CCCC[N+]3=Cc4ccc5[n]4[Au-]23[n]2c1ccc2-c1nc2ccccc2nc1-5.F[P-](F)(F)(F)(F)F
CC50 (CNS cancer cell lines; NCI60 panel mean): 50 µM

c1ccc(CNCC23C4CCC5C4C4C(CCC42)C53)cc1
CC50 (dog cells; cytotoxicity; 3 (unit not given)): 12 µM

O=C1C=CC(=O)C=C1
CC50 (Huh-7, mock-infected; MTS; 4 (unit not given)): 36.2 ± 0.7 µM

Repeated from above:
c1csc(CNC23C4CCC5C4C4C(CCC42)C53)c1
CC50 (dog cells; cytotoxicity; 3 (unit not given)): ≥ 20 µM

CC(C)C[C@@H]1NC(=O)[C@H](CCCCN)NC(=O)[C@H](CC(C)C)NC(=O)[C@@](C)(NC(=O)[C@H](Cc2ccccc2)NC(=O)[C@H](Cc2ccc(O)cc2)NC(=O)[C@H](C)NC(=O)[C@@H](N)[C@@H](C)O)CCCC=CCCC[C@@](C)(C(=O)NCC(=O)N[C@@H](CCCNC(=N)N)C(=O)N[C@@H](Cc2c[nH]c3ccccc23)C(N)=O)NC1=O
CC50 (MT-4): 50 µM
